Published values gathered from unrelated publications.
Lines come from different studies, so protocols differ. Numbers after ± are the reported error.
Genome polyprotein NS2B-NS3 protease: Genome polyprotein, NS2B-NS3 protease (dengue virus type 2, UniProt P29990)

`CNS(=O)(=O)Nc1nccc(Cc2c(C)c3ccc(Oc4ncccc4F)cc3oc2=O)c1F` gave an IC50 of over 1 µM (AMO1; cell viability; 7 days).
`CC[n+]1cccc2cc(/C=N/NC(=O)c3ccc4ccc(C(=O)N/N=C/c5ccc6c(ccc[n+]6CC)c5)nc4n3)ccc21` gave a ΔTm of 21.2 ± 1 °C (telomeric G4 DNA hybrid-2; FRET melting; 1 µM, DNA 0.2 µM).
`C=CC(=O)Nc1cccc(Cn2ncc3cnc(Nc4cnn(CCOC)c4)nc32)c1` — result for “percent of control”: 100% (MTOR human; binding, KINOMEscan; 100 nM; lower = stronger binding).
With `C=CC(=O)N1[C@H](c2ccc3c(c2)OCO3)c2[nH]c3ccccc3c2C[C@@H]1C(=O)N1CCN(C)CC1` the relative co-enrichment was 75% (human cyclin E1 N112C-3xFLAG:CDK2; co-IP with TMT proteomics, refers to: TXN; concentration not given, P10599; baseline: wild type DMSO).
`Nc1ncc(-c2cc(-c3cnn(CC(F)(F)F)c3)ncc2F)nc1C(=O)NC1CNCC(F)C1` (centres unmarked) has a remaining binding of 97% (TAK1; KINOMEscan; 1 µM; baseline: DMSO control).
With `C[n+]1ccc(/C=N/NC(=O)c2cc(C(=O)N/N=C/c3cc[n+](C)cc3)ncn2)cc1` the ΔTm was 1.2 ± 0.4 °C (telomeric G4 DNA hybrid-2; FRET melting; 1 µM, DNA 0.2 µM).
With `O=C(Nc1cccc(N2CCNCC2)c1)c1cc(-c2ccccc2)n(-c2ccccc2)n1` the EC50 was over 16 µM (Genome polyprotein NS2B-NS3 protease; reporter gene; HeLa).
The ΔTm of `O=C(N/N=C/c1cc[n+](Cc2ccccc2)c2ccccc12)c1cncc(C(=O)N/N=C/c2cc[n+](Cc3ccccc3)c3ccccc23)n1` is reported as 22.7 ± 1.7 °C (telomeric G4 DNA hybrid-2; FRET melting; 1 µM, DNA 0.2 µM).
Under “log2 fold change”, `CN1CCCNC(=O)c2cccc(c2)C(=O)NCCCN(C)CCCNc2cccc3c2C(=O)c2cccc(c2C3=O)NCCC1` is recorded as -0.375 (SAS; RNA-Seq, refers to: NOP56 mRNA; 1 µM, 6 h; baseline: untreated cells).
For `N=C(N)NCCC[C@@H]1NC(=O)[C@H](CCCNC(=N)N)NC(=O)[C@@H](C(c2ccccc2)c2ccccc2)NC(=O)[C@H](Cc2c[nH]c3ccccc23)NC(=O)[C@@H](C(c2ccccc2)c2ccccc2)NC(=O)[C@@H](CCCNC(=N)N)NC(=O)[C@@H](CCCNC(=N)N)NC1=O`, the MIC was over 64 mg/L (Aspergillus fumigatus; fungal growth).
With `C[n+]1cccc2cc(/C=N/NC(=O)c3cccc(C(=O)N/N=C/c4ccc5c(ccc[n+]5C)c4)n3)ccc21` the ΔTm was 23.7 ± 0.9 °C (telomeric G4 DNA hybrid-2; FRET melting; 1 µM, DNA 0.2 µM).
The EC50 of `NC(=O)c1cccc(NC(=O)c2cc(-c3ccccc3)n(-c3ccc(Br)cc3)n2)c1` is reported as 12 µM (Genome polyprotein NS2B-NS3 protease; reporter gene; HeLa).
`COC1CN([C@H]2CC[C@H]([C@@]3(C)Oc4c(Cl)cc(C(=O)NCc5c(SC)cc(C)[nH]c5=O)c(C)c4O3)CC2)C1`: “log2 fold change” 1.62 (RNA-seq, refers to: METTL27 mouse homolog; mouse, HT-1376 xenograft, whole blood; dose not given; baseline: vehicle).
For `CC(C)(C)c1cc(-c2ccc3cccnc3n2)nc(-c2ccc3cccnc3n2)c1.[Cl-].[Cl-].[Ru+2].c1ccc2cc3nc4c5cccnc5c5ncccc5c4nc3cc2c1`, the EC50 was 5.09 µM (B16-F10; resazurin; with: light 733 nm, 9 mW, 100 J/cm2).
Under “log2 fold change”, `Cc1ncsc1-c1ccc(C(C)NC(=O)C2CC(O)CN2C(=O)C(NC(=O)CCCCCCCCCCN2CCCC(Nc3ncc(Cl)c(Nc4ccccc4S(=O)(=O)C(C)C)n3)C2)C(C)(C)C)cc1` (centres unmarked) is recorded as -2.46 (22Rv1; RNA-seq, refers to: NABP1 mRNA; concentration not given; baseline: DMSO).
For `O=C(N/N=C/c1ccc(C[n+]2ccccc2)cc1)c1cccc(C(=O)N/N=C/c2ccc(C[n+]3ccccc3)cc2)n1`, the ΔTm was 11.9 ± 2.1 °C (telomeric G4 DNA hybrid-2; FRET melting; 1 µM, DNA 0.2 µM, with: duplex DNA competitor 10 µM).
`CC(=O)[O-].O.[Cu+2].[O-]c1ccc(Br)cc1C=NCCN1CCOCC1` gave an inhibition of 8.28% (hydroxyl radical scavenging; 40 µM).

A few entries again:
With `C=CC(=O)N1[C@H](c2ccc3c(c2)OCO3)c2[nH]c3ccccc3c2C[C@@H]1C(=O)N1CCN(C)CC1` the relative co-enrichment was 75% (human cyclin E1 N112C-3xFLAG:CDK2; co-IP with TMT proteomics, refers to: TXN; concentration not given, P10599; baseline: wild type DMSO).
`Nc1ncc(-c2cc(-c3cnn(CC(F)(F)F)c3)ncc2F)nc1C(=O)NC1CNCC(F)C1` (centres unmarked) has a remaining binding of 97% (TAK1; KINOMEscan; 1 µM; baseline: DMSO control).
With `C[n+]1ccc(/C=N/NC(=O)c2cc(C(=O)N/N=C/c3cc[n+](C)cc3)ncn2)cc1` the ΔTm was 1.2 ± 0.4 °C (telomeric G4 DNA hybrid-2; FRET melting; 1 µM, DNA 0.2 µM).
